Experimental data collected from several papers.
CTSL: Procathepsin L (CTSL, Homo sapiens, UniProt P07711)
UniProt P07711, sequence (whole entry, looked up): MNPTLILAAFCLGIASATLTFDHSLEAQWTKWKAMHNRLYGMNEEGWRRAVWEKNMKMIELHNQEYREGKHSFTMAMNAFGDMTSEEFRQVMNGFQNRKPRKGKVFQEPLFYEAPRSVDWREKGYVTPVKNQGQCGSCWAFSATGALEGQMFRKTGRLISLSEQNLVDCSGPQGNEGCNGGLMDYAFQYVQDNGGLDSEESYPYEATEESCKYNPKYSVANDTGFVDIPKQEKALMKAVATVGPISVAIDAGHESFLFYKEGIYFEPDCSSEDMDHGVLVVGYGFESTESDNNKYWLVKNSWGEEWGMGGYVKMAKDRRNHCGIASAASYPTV
DRD3: D(3) dopamine receptor (DRD3, Homo sapiens, UniProt P35462)
UniProt P35462, sequence (whole entry, looked up): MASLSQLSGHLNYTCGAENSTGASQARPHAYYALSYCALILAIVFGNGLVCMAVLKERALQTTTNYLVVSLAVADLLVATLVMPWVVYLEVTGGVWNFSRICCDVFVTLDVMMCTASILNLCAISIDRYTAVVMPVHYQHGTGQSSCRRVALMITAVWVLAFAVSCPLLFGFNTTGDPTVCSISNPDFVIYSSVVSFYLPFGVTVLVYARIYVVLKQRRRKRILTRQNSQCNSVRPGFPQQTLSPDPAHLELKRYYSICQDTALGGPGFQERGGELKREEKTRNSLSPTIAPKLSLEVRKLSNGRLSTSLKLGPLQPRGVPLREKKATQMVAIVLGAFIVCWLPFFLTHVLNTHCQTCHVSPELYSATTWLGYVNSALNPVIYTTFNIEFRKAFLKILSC
UniProt Q15569, sequence (whole entry, looked up): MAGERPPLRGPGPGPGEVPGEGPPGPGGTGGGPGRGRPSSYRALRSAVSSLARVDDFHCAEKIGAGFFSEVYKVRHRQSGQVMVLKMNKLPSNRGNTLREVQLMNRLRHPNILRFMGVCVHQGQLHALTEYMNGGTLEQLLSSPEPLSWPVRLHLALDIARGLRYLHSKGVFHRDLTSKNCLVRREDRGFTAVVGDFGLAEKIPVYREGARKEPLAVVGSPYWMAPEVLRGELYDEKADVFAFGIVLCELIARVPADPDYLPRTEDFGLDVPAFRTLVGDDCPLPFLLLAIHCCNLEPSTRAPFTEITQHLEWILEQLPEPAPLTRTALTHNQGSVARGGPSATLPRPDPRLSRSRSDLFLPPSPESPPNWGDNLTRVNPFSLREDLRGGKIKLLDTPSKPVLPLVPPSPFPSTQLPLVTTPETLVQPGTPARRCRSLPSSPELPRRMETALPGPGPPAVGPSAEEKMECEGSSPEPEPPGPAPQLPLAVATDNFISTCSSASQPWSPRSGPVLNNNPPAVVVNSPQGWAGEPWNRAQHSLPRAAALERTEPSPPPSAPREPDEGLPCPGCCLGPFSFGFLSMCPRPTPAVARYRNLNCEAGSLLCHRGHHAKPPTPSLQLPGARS
UniProt P10721, sequence (whole entry, unmodified, looked up): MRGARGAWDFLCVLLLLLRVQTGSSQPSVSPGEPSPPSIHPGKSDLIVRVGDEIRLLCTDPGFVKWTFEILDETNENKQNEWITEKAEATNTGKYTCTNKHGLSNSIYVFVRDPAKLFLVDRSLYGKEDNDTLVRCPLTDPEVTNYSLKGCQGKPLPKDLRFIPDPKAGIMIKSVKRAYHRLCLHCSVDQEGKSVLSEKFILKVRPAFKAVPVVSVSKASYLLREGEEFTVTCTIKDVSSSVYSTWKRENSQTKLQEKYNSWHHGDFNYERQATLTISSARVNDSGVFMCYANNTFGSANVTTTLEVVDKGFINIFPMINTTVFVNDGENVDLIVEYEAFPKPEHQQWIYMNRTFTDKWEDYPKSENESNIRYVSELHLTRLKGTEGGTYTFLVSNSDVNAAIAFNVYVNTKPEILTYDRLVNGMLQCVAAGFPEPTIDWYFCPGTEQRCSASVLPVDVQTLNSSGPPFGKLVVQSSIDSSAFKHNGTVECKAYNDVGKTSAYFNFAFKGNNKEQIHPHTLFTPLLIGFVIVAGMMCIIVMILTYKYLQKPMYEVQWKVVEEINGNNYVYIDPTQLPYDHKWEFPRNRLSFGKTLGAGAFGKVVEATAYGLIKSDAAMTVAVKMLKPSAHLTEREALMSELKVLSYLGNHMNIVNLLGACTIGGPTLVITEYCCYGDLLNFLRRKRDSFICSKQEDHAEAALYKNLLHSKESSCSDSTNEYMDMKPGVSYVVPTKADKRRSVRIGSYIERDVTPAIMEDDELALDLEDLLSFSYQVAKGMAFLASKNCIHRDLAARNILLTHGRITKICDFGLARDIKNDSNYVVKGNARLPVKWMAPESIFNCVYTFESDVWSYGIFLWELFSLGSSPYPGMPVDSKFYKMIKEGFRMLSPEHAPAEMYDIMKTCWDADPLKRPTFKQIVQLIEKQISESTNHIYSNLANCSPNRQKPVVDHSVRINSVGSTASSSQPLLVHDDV
UniProt Q00535, sequence (whole entry, looked up): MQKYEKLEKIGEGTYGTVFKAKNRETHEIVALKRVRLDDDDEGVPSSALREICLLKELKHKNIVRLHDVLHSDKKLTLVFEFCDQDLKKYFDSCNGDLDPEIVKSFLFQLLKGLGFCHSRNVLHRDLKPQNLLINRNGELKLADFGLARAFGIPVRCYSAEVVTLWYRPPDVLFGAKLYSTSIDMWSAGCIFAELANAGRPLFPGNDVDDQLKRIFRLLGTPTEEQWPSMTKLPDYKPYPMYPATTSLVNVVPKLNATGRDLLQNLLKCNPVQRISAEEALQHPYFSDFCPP
UniProt Q13976, sequence (whole entry, looked up): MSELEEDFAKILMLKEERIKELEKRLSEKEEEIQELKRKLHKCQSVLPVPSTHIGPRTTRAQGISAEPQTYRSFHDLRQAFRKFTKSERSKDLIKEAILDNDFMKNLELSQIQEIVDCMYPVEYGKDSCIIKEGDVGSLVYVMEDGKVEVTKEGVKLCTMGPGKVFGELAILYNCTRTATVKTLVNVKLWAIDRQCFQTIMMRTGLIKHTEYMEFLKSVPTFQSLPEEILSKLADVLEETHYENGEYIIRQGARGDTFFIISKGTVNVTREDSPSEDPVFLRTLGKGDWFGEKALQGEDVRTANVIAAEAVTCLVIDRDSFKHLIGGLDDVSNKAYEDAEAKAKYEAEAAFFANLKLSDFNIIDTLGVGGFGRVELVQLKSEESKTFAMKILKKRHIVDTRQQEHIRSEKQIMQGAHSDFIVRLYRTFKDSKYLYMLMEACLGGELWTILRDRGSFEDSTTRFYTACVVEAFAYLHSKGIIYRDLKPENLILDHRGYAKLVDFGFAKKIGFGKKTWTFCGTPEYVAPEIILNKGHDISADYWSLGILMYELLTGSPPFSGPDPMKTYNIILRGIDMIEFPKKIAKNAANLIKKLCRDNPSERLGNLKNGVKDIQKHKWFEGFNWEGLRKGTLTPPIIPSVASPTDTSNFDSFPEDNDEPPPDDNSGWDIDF
UniProt Q9H8M2, sequence (whole entry, unmodified, looked up): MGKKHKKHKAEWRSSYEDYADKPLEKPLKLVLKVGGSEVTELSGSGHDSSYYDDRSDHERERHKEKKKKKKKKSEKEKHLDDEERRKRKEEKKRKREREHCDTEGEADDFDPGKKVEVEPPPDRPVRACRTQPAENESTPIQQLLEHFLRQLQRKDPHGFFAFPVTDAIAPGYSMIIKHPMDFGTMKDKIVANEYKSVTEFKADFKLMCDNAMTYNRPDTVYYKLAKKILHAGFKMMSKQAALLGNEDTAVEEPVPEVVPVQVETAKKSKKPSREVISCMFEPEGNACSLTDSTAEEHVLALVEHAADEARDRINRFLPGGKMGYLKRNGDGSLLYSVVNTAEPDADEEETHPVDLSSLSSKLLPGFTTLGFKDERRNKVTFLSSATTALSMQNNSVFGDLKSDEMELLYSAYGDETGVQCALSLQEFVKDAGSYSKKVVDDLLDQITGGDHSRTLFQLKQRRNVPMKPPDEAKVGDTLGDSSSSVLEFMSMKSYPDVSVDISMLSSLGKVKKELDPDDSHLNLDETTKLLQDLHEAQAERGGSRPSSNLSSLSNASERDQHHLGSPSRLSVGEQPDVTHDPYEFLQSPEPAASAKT
UniProt Q70EK9, sequence (whole entry, looked up): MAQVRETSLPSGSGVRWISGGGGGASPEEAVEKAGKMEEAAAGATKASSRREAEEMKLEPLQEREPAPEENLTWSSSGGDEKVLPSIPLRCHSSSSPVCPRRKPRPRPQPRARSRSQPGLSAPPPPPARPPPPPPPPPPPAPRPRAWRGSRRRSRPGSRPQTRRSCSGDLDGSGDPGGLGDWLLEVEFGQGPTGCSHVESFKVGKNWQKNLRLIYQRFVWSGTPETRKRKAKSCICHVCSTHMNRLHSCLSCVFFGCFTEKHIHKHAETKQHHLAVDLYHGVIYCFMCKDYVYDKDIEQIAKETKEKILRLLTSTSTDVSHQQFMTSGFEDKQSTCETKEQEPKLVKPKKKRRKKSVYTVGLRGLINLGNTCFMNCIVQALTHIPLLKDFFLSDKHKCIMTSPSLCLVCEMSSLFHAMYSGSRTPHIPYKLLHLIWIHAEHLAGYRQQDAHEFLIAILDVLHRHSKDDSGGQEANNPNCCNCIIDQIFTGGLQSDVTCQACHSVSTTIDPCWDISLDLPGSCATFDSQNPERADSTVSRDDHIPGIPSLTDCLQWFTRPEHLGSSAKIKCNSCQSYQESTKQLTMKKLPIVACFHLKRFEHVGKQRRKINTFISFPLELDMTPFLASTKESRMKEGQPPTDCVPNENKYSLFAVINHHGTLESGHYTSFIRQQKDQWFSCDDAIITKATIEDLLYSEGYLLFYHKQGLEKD
UniProt Q92915, sequence (whole entry, looked up): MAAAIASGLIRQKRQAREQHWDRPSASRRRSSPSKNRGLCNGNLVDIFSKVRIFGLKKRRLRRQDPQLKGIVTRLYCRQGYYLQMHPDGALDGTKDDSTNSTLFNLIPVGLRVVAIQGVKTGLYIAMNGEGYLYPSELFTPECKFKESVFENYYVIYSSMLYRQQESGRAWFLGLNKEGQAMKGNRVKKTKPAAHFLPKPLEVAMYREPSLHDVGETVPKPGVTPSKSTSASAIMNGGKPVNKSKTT

SMILES = COc1ccc(C=O)c(O)c1; target = CTSL; assay = enzyme activity, inhibitor; setting = 100 µM; quantity = remaining activity; result = 95.8%
SMILES = CCCCC(=O)Nc1ccc(-c2ccc3ncn(CCC)c(=O)c3c2)cn1; target = NTRK3 (Homo sapiens, UniProt Q16288); assay = binding, competition with immobilised ligand; setting = 0.5 µM; quantity = remaining binding; result = 100%
SMILES = CNc1ncc2c(/C=C/C(=O)N3CCC(OC)CC3)nn(Cc3cccc(C(F)(F)F)c3)c2n1; target = ROCK2 (Homo sapiens, UniProt O75116); assay = enzyme activity, inhibitor, radiometric; setting = 1 µM; quantity = remaining activity; result = 84%
SMILES = O=C(C=Cc1ccc(O)c(O)c1)c1ccc(O)c(O)c1O; target = CTSL; assay = enzyme activity, inhibitor; setting = 100 µM; quantity = remaining activity; result = 35.8%
SMILES = Cc1[nH]c(C)c(S(=O)(=O)Nc2ccc(C(F)(F)F)c(Cl)c2)c1C(=O)N(C)CC(F)(F)F; target = DRD3; assay = β-arrestin recruitment, agonist; setting = 90 min; quantity = Emax; result = 85%
SMILES = Nc1ncnc2occ(-c3ccc(NC(=O)Nc4cc(C(F)(F)F)ccc4F)cc3)c12; target = Tyrosine-protein kinase ABL1, non-phosphorylated (ABL1, Homo sapiens, UniProt P00519); assay = cell-free assay, inhibitor; setting = 20 µM; quantity = remaining signal; result = 0%
SMILES = COc1ccc2oc(-c3ccc4nc(N)oc4c3)c/c(=N\c3ccccc3NC(=O)CCN)c2c1; target = PRKDC (Homo sapiens, UniProt P78527); assay = binding; setting = 1 µM; quantity = remaining binding; result = 107%
SMILES = C=CC(=O)N1CCC(COCC(=O)N2CCN(c3nc(-c4cnc(N)nc4C(F)F)nc(N4CCOC[C@@H]4C)n3)CC2)CC1; target = KIT (Homo sapiens, UniProt P10721, V559D); assay = binding, competition with immobilised ligand; setting = 1 µM; quantity = remaining binding; result = 95%
SMILES = Cc1[nH]c(C)c(S(=O)(=O)Nc2ccc(C(F)(F)F)c(Cl)c2)c1C(=O)N1CCC(=O)C1; target = DRD3; assay = β-arrestin recruitment, agonist; setting = 90 min; quantity = Emax; result = 97%
SMILES = COc1cc(-c2cncc3c2CN(C)Cc2cc(N4CCNCC4)ccc2-3)cc(OC)c1OC; target = CAMKK2 (Homo sapiens, UniProt Q96RR4); assay = enzyme activity, inhibitor; setting = 1 µM; quantity = remaining activity; result = 109%
SMILES = COc1ccc(OC)c(-c2cc(C(C)=O)n3ccccc23)c1; target = BRD9 (Homo sapiens, UniProt Q9H8M2); assay = thermal stability, DSF; setting = 200 µM; quantity = ΔTm; result = 6.5 to 7.3 °C
SMILES = O=C(O)c1cc(O)c2c(c1)C(=O)c1cccc(O)c1C2=O; target = CTSL; assay = enzyme activity, inhibitor; setting = 100 µM; quantity = remaining activity; result = 109%
SMILES = C1=C/COCc2cc(ccc2OCCN2CCCC2)Nc2nccc(n2)-c2cccc(c2)COC/1; target = PRKG1 (Homo sapiens, UniProt Q13976); assay = binding; setting = 0.1 µM; quantity = remaining binding; result = 100%
SMILES = CC[C@H](C)[C@H](NC(=O)[C@H](CCC(N)=O)NC(=O)[C@H](CCCNC(=N)N)NC(=O)[C@H](CO)NC(=O)[C@H](Cc1c[nH]cn1)NC(=O)[C@@H]1CCCN1C(=O)[C@H](C)NC(=O)[C@H](CO)NC(=O)[C@H](CC(C)C)NC(=O)CNC(=O)[C@@H]1CCCN1C(=O)[C@H](CCC(N)=O)NC(=O)[C@H](CCC(N)=O)NC(=O)[C@H](CCCNC(=N)N)NC(=O)[C@H](CO)NC(=O)CNC(=O)[C@H](CO)NC(=O)[C@H](CO)NC(=O)[C@H](CCC(=O)O)NC(=O)[C@@H]1CCCN1C(=O)[C@@H]1CCCN1C(=O)[C@@H]1CCCN1C(=O)[C@H](CO)NC(=O)[C@H](CC(C)C)NC(=O)[C@H](CO)NC(=O)[C@@H](NC(=O)CN)[C@@H](C)O)C(=O)N1CCC[C@H]1C(=O)N[C@@H](C)C(=O)N1CCC[C@H]1C(=O)N[C@@H](CCC(N)=O)C(=O)NCC(=O)N[C@@H](C)C(=O)N[C@H](C(=O)N[C@@H](CC(C)C)C(=O)N[C@H](C(=O)N[C@@H](CCC(N)=O)C(=O)N[C@@H](CCCNC(=N)N)C(=O)N[C@@H](CCC(=O)O)C(=O)N[C@@H](CCCCN)C(=O)N[C@@H](CC(=O)O)C(=O)N[C@@H](CC(C)C)C(=O)N1CCC[C@H]1C(=O)N[C@@H](CC(N)=O)C(=O)N[C@@H](Cc1ccc(O)cc1)C(=O)N[C@@H](CC(N)=O)C(=O)N[C@@H](Cc1c[nH]c2ccccc12)C(=O)N[C@@H](CC(N)=O)C(=O)N[C@@H](CO)C(=O)N[C@@H](Cc1ccccc1)C(=O)NCC(=O)N[C@@H](CC(C)C)C(=O)N[C@@H](CCCNC(=N)N)C(=O)N[C@@H](Cc1ccccc1)C(N)=O)C(C)C)C(C)C; target = KiSS-1 receptor (KISS1R, Homo sapiens, UniProt Q969F8, H309A); assay = inositol phosphate, agonist; system = HEK293; quantity = Emax; result = 51.1%
SMILES = O=c1cc(-c2ccc([N+](=O)[O-])cc2)[nH]c2c(-c3ccc(Cl)cc3)c(Cc3ccccc3)nn12; target = Fibroblast growth factor 14 (Homo sapiens, UniProt Q92915); assay = binding, SPR; quantity = kon; result = 2050 M⁻¹ s⁻¹
SMILES = COc1ccc(C(=O)C=Cc2ccccc2)cc1; target = CTSL; assay = enzyme activity, inhibitor; setting = 100 µM; quantity = remaining activity; result = 101%
SMILES = CC(=O)Oc1cccc2c1C(=O)c1c(OC(C)=O)cc(C(=O)O)cc1C2=O; target = USP51 (Homo sapiens, UniProt Q70EK9); assay = enzyme activity, inhibitor; setting = 5 µM; quantity = inhibition; result = 32%
SMILES = FC(F)(F)Oc1cccc(-c2cnc3ccc(-c4ccncc4)nn23)c1; target = TESK1 (Homo sapiens, UniProt Q15569); assay = enzyme activity, inhibitor, radiometric; setting = 5 µM; quantity = activity vs control; result = 10%
SMILES = O=c1c(O)c(-c2ccc(O)c(O)c2)oc2cc(O)ccc12; target = CTSL; assay = enzyme activity, inhibitor; setting = 100 µM; quantity = remaining activity; result = 74.7%
SMILES = CC[C@H](C)[C@H](NC(=O)[C@H](CCC(N)=O)NC(=O)[C@@H](NC(=O)[C@H](CCSC)NC(=O)[C@H](CCCCN)NC(=O)[C@H](CO)NC(=O)[C@@H](NC(=O)[C@H](CCSC)NC(=O)[C@H](CC(C)C)NC(=O)[C@H](CC(N)=O)NC(=O)[C@@H](NC(=O)[C@@H](NC(=O)[C@H](CO)NC(=O)[C@H](CC(C)C)NC(=O)[C@H](C)NC(=O)[C@H](CCCNC(=N)N)NC(=O)[C@H](CCC(=O)O)NC(=O)[C@H](Cc1ccc(O)cc1)NC(=O)[C@H](Cc1ccccc1)NC(=O)[C@H](C)NC(=O)[C@H](CC(N)=O)NC(=O)[C@@H](N)CCCCN)[C@@H](C)CC)[C@@H](C)CC)[C@@H](C)O)C(C)C)C(=O)N[C@@H](CC(N)=O)C(=O)N[C@H](C(=O)O)C(C)C; target = Cyclin-dependent kinase 5, with p25 (CDK5, Homo sapiens, UniProt Q00535); assay = enzyme activity, inhibitor, radiometric; setting = 50 µM, 20 min; quantity = remaining activity; result = 78%
SMILES = NCCCC[C@H](NC(=O)[C@@H]1CCCN1C(=O)[C@@H]1CSSC[C@H](N)C(=O)N[C@@H](Cc2ccc(O)cc2)C(=O)N[C@@H](Cc2ccccc2)C(=O)N[C@@H](CCC(N)=O)C(=O)N[C@@H](CC(N)=O)C(=O)N1)C(=O)NCC(N)=O; target = CTSL; assay = enzyme activity, inhibitor; setting = 100 µM; quantity = remaining activity; result = 134%
SMILES = Cc1cc([C@@H](C)Nc2ccccc2C(=O)O)c2nc(N3CCC(F)(F)CC3)c(C#N)c(=O)n2c1; target = PIK3C2B (Homo sapiens, UniProt O00750); assay = binding, competition with immobilised ligand; setting = 1 µM; quantity = remaining binding; result = 100%
